Published values from different studies.
A part holds a random share of what one study measured.

Series 1
Target: Interferon regulatory factor 3, full length, phosphomimetic (IRF3, Homo sapiens, UniProt Q14653, residues 1-427, S386D/S396D/S398D/S402D/T404D/S405D)
Chain of UniProt Q14653 (whole entry, unmodified, looked up): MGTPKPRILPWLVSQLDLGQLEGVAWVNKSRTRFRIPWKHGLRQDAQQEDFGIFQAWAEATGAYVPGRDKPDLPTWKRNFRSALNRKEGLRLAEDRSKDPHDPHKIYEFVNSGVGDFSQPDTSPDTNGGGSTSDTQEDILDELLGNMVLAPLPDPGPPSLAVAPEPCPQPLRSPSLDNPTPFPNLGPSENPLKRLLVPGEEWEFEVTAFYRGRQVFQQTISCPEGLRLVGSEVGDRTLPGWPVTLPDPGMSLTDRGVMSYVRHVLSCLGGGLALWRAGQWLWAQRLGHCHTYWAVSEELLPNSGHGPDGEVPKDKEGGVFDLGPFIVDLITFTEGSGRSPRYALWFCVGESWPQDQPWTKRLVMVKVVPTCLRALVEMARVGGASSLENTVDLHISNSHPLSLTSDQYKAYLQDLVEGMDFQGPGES
Technique: protein-binding microarray
Form: double-stranded DNA, one strand shown
Sample: in vitro
Concentration: 2540 nM top
Setting: 60-bp whole probe
Together with: salmon DNA 0.4 mg/ml
Relative to: random background probes
Direction: higher = stronger binding
All sequences stand within: GCCTAGCAC … GTCTTGATTCGCTTGACGCTGCTG
| Sequence | fitted relative affinity [z-score] |
| --- | --- |
| TTAGGACAGCTTATCCTTTAGTGCTAG | -0.0911 |
| TAGAACTTCTCCACTGAATGAGTGCTA | -0.289 |
| GACGGACTGGGTCTCGGGACGTGCTAG | -0.856 |
| TTGGGACTGGACACTGGGTTAGTGCTA | -1.2 |
| ATTTTTTTGCATTGCTTCTAGTGCTAG | 0.599 |
| TTAGGTATCGGGTATCGGATAGTGCTA | 1.9 |
| CTAGATTTCAGTATCGATTAGTGCTAG | 2.52 |

Series 2
Target: Sal-like protein 4, full length isoform A (SALL4, Homo sapiens, UniProt Q9UJQ4, residues 1-1053)
Chain of UniProt Q9UJQ4 (whole entry, looked up): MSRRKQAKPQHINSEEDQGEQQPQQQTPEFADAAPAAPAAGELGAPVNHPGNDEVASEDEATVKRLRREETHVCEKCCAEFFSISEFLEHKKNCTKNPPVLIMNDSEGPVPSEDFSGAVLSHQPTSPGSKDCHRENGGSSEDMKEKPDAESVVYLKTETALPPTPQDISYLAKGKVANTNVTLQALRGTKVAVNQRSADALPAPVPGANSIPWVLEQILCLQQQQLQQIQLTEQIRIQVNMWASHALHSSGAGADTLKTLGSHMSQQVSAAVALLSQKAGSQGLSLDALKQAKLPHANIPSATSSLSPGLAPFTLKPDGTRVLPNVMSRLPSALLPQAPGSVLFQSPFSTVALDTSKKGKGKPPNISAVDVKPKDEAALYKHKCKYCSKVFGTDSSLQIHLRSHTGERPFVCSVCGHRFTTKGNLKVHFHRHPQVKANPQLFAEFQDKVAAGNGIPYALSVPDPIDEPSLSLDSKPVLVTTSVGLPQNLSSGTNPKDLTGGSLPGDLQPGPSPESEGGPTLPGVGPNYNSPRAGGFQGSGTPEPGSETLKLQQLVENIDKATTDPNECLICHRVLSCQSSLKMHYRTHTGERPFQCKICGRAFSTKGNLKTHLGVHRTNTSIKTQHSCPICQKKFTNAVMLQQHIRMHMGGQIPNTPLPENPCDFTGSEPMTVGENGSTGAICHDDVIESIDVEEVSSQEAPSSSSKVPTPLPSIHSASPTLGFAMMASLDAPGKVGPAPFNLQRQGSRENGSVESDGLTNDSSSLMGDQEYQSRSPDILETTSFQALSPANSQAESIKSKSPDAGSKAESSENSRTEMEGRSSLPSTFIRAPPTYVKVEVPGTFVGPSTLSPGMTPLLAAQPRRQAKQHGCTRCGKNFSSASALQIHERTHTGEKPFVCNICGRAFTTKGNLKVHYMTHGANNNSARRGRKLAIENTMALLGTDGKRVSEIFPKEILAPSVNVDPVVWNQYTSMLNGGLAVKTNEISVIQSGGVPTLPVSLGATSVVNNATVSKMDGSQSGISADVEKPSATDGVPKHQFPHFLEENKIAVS
Technique: universal PBM
Form: double-stranded DNA, one strand shown
Sample: in vitro
Concentration: 600 nM
Setting: 8-mer, flanks averaged, mean of replicates
Direction: higher = stronger binding
| Sequence | E-score |
| --- | --- |
| ATCTTACA | 0.164 |
| ACGCTCCT | 0.0123 |
| CTAGCTAC | -0.152 |
| GGCCTTTA | -0.0943 |
| GACAGCCC | -0.323 |
| CTCTACTC | -0.00861 |
| AAGAGCTC | -0.324 |

Series 3
Target: RNA binding protein fox-1 homolog 2, RRM domain, GST-SBP tag (RBFOX2, Homo sapiens, UniProt O43251-10, residues 100-194)
Technique: RNA Bind-n-Seq
Form: RNA
Sample: in vitro
Concentration: 365 nM
Setting: natural RNA segment, single round, ends assumed
Relative to: no-protein control
Direction: higher = stronger binding
Residues (chain): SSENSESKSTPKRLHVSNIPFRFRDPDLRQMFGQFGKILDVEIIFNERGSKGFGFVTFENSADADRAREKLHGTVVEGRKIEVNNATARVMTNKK
| Sequence | RBNS enrichment (R) |
| --- | --- |
| GGGAGUUCUACAGUCCGACGAUCAAGAAGCCUUCACUCACCUUCACUGCUGCUGUUGCAACUCGGCUGUUCUGGACUCUGAUGUGUGUGGAGGGAUGGGGAAUAGAACAUUGACUGUGUUGAUUACCUUCACUUGGAAUUCUCGGGUGCCAA | 1.53 |
| GGGAGUUCUACAGUCCGACGAUCAUGAGAGUCAAACACCCUGCCUACAAGGAGAUGUUUUGAAAUGGAGAGGAAAAUUGGCACCUCAUCUUUUAAAGGCAGUAAUGGAAUUGAUUUUCAGUAACUGAAUUUGUUGGAAUUCUCGGGUGCCAA | 1.25 |
| GGGAGUUCUACAGUCCGACGAUCGUCAUAUGAAGUAGAUGUGCAAUCAUGUAGACAGCAGGCCAAGGUGAUCAGUGGCUAAAGUUGAAAAGGGGUUGGUUUCUUUCAUAUAUGUAUGUGUGUGUACAUGCGCAUGGAAUUCUCGGGUGCCAA | 1.03 |
| GGGAGUUCUACAGUCCGACGAUCCUUUGAAGAUCUUCAUGGCUGCUGUGAGACCCUGCUUUGGCAGCACCGAGUCACCUGGUGAGCCUCAGGCUGGCACACCGAAGUUGUGCCGUGCUUACGUUAUUUAUUAGUGGAAUUCUCGGGUGCCAA | 0.212 |

Mixed results
| Substance | target | assay | system | conditions | scale | quantity | value |
| --- | --- | --- | --- | --- | --- | --- | --- |
| PhoQ, residues 284 288 289 292 302 303 TTSMTC | PhoP, residues 12 14 15 18 19 VHSCL (Escherichia coli, UniProt P23836) | Sort-seq, item: YFP reporter | E. coli | PhoQ-PhoP variant library, together with: 10 µM Mg2+ | relative to: high Mg2+ state, higher = stronger signaling | fold induction | 10.8 |
